Measurements pooled from the literature.
Protocols differ between the studies behind these lines. ± marks the error that the study gave.
Organism: Plasmodium falciparum

| SMILES | observed | method | strain | time | temperature | notes | EC50 [µM] |
| --- | --- | --- | --- | --- | --- | --- | --- |
| N#Cc1ccc(C2Sc3ccccc3NC3=C2C(=O)c2ccccc23)cc1 (racemic) | growth | hypoxanthine uptake | Dd2 expressing yeast DHOD | – | – | – | > 5 |
| CC(C)C[C@@H](NC(=O)[C@@H](C)NC(=O)[C@@H](CCCCN)NC(=O)[C@@H](CC(C)C)NC(=O)[C@@H](C)NC(=O)[C@H]1CCCN1C(=O)[C@@H](CC(C)C)NC(=O)[C@@H](Cc1c[nH]c2ccccc12)NC(=O)[C@@H](CCCCN)NC(=O)[C@@H](C)NC(=O)[C@@H](CC(C)C)NC(=O)[C@@H](C)NC(=O)[C@@H](Cc1c[nH]cn1)NC(=O)[C@@H](CCCCN)NC(=O)[C@@H](CC(C)C)NC(=O)[C@@H](C)NC(=O)[C@@H](CCCCN)NC(=O)[C@H](N)CCCCN)C(=O)N[C@H](C)C(=O)N[C@H](Cc1c[nH]cn1)C(=O)N[C@H](CCCCN)C(=O)N[C@H](CC(C)C)C(=O)N[C@H](C)C(=O)N[C@H](CCCCN)C(=O)N[C@H](CCCCN)C(N)=O | – | SYBR Green fluorescence | C10 | 48 h | 37 °C | – | 3.94 ± 0.33 |
| CCC12CCCN(C=CC(=O)OC)CCc3c(n(c4ccccc34)C(O)(C(=O)OC)C1)C2Oc1ccccc1 (stereo not drawn) | parasite growth | SYBR Green | DD2 | – | – | drug-resistant strain, blood stage | 2.65 |
| COC(=O)c1[nH]c(C(=O)OC)c2c1-c1c[nH]c3ccc(Cl)c(c13)[C@]21C=Nc2ccc(Cl)cc21 | parasite growth | SYBR Green | DD2 | 72 h | – | drug-resistant strain, blood stage | 7.1 |
| CC(C)C[C@@H](NC(=O)[C@@H](C)NC(=O)[C@@H](CC(C)C)NC(=O)[C@@H](CCCCN)NC(=O)[C@@H](CCCCN)NC(=O)[C@@H](CC(C)C)NC(=O)[C@@H](C)NC(=O)[C@@H](CC(C)C)NC(=O)[C@@H](CC(C)C)NC(=O)[C@@H](Cc1c[nH]c2ccccc12)NC(=O)[C@@H](CCCCN)NC(=O)[C@@H](CCCCN)NC(=O)[C@@H](CC(C)C)NC(=O)[C@@H](C)NC(=O)[C@@H](CC(C)C)NC(=O)[C@@H](CC(C)C)NC(=O)[C@@H](C)NC(=O)[C@@H](CC(C)C)NC(=O)[C@@H](CCCCN)NC(=O)[C@H](N)CCCCN)C(=O)N[C@H](CC(C)C)C(=O)N[C@H](C)C(=O)N[C@H](CC(C)C)C(=O)N[C@H](CCCCN)C(=O)N[C@H](CCCCN)C(N)=O | – | SYBR Green fluorescence | 3D7 | 48 h | 37 °C | – | 1.95 ± 0.08 |
| CN(C)CCCOc1ccc(C2Sc3ccccc3NC3=C2C(=O)c2ccccc23)cc1 (racemic) | growth | [3H]hypoxanthine incorporation | Dd2 | – | – | – | 0.57 |
| COC(=O)c1[nH]c(C(=O)OC)c2c1-c1c[nH]c3ccc(Cl)c(c13)C21CN(C)c2ccc(Cl)cc21 (racemic) | parasite growth | SYBR Green | DD2 | 72 h | – | drug-resistant strain, blood stage | 5.5 |
| CC(C)C[C@@H](NC(=O)[C@@H](C)NC(=O)[C@@H](CCCCN)NC(=O)[C@H](N)CCCCN)C(=O)N[C@H](C)C(=O)N[C@H](CCCCN)C(=O)N[C@H](C)C(=O)N[C@H](CC(C)C)C(=O)N[C@H](CCCCN)C(=O)N[C@H](Cc1c[nH]cn1)C(=O)N[C@H](Cc1c[nH]c2ccccc12)C(=O)N[C@H](CC(C)C)C(=O)N1CCC[C@@H]1C(=O)N[C@H](C)C(=O)N[C@H](CC(C)C)C(=O)N[C@H](Cc1c[nH]cn1)C(=O)N[C@H](CCCCN)C(=O)N[C@H](CC(C)C)C(=O)N[C@H](C)C(=O)N[C@H](CCCCN)C(=O)N[C@H](C)C(=O)N[C@H](CC(C)C)C(=O)N[C@H](C)C(=O)N[C@H](CCCCN)C(=O)N[C@H](CCCCN)C(N)=O | – | SYBR Green fluorescence | C10 | 48 h | 37 °C | – | 0.96 ± 0.07 |
| O=C1C2=C(Nc3ccccc3SC2c2ccsc2)c2ccccc21 (racemic) | growth | hypoxanthine uptake | Dd2 expressing yeast DHOD | – | – | – | > 5 |

Repeated from above:
| SMILES | observed | method | strain | time | temperature | notes | EC50 [µM] |
| --- | --- | --- | --- | --- | --- | --- | --- |
| CC(C)C[C@@H](NC(=O)[C@@H](C)NC(=O)[C@@H](CCCCN)NC(=O)[C@@H](CC(C)C)NC(=O)[C@@H](C)NC(=O)[C@H]1CCCN1C(=O)[C@@H](CC(C)C)NC(=O)[C@@H](Cc1c[nH]c2ccccc12)NC(=O)[C@@H](CCCCN)NC(=O)[C@@H](C)NC(=O)[C@@H](CC(C)C)NC(=O)[C@@H](C)NC(=O)[C@@H](Cc1c[nH]cn1)NC(=O)[C@@H](CCCCN)NC(=O)[C@@H](CC(C)C)NC(=O)[C@@H](C)NC(=O)[C@@H](CCCCN)NC(=O)[C@H](N)CCCCN)C(=O)N[C@H](C)C(=O)N[C@H](Cc1c[nH]cn1)C(=O)N[C@H](CCCCN)C(=O)N[C@H](CC(C)C)C(=O)N[C@H](C)C(=O)N[C@H](CCCCN)C(=O)N[C@H](CCCCN)C(N)=O | – | SYBR Green fluorescence | C10 | 48 h | 37 °C | – | 3.94 ± 0.33 |
